Assay results collected from several papers.
Lines come from different studies, so protocols differ. ± gives the spread as reported.

| Compound | test | system | conditions | Cmax |
| --- | --- | --- | --- | --- |
| CC(C)(Sc1ccncc1-c1ccc(C#N)c2ccccc12)C(=O)OC1OC(C(=O)O)C(O)C(O)C1O (stereo not shown) | – | plasma | oral, 15 mg, normal renal function, fasted | 25.7 ng/mL |
| Cc1ccccc1-c1cc(N2CCNCC2)ncc1N(C)C(=O)C(C)(C)c1cc(C(F)(F)F)cc(C(F)(F)F)c1 | – | cancer patients, plasma | oral, dose not given, netupitant-palonosetron single dose, range of means | 36 to 40.6 ng/mL |
| CONC(=O)/C=C/c1cccc(S(=O)(=O)Nc2ccccc2)c1 | – | patients with severe liver dysfunction, plasma | intravenous, 400 mg/m^2 belinostat, single 30 min infusion, cycle 1 day -7, mean | 3350 ng/mL |
| Cn1cc(C(N)=O)c(NC2C3CC4CC2CC(OS(=O)(=O)O)(C4)C3)c2ccnc1-2 (stereo not shown) | – | Japanese adults, mild hepatic impairment, plasma | oral, 150 mg single dose | 90.6 ng/mL |
| O=C(O)c1cccc(S(=O)(=O)Nc2ccccc2)c1 | – | patients with normal liver function, plasma | intravenous, 400 mg/m^2 belinostat, single 30 min infusion, cycle 1 day -7, mean | 2560 ng/mL |
| CN1CCN(c2cc(-c3ccccc3CO)c(N(C)C(=O)C(C)(C)c3cc(C(F)(F)F)cc(C(F)(F)F)c3)cn2)CC1 | – | cancer patients, plasma | oral, dose not given, netupitant-palonosetron single dose, range of means | 64.4 to 74.3 ng/mL |
| Cn1cc(C(N)=O)c(NC2C3CC4CC2CC(O)(C4)C3)c2ccnc1-2 (stereo not shown) | – | Japanese adults, mild hepatic impairment, plasma | oral, 150 mg single dose | 53.5 ng/mL |
| Cc1ccc([C@@H]2O[C@H](CO)[C@@H](O)[C@H](O)[C@H]2O)cc1Cc1ccc(-c2ccc(F)cc2)s1 | – | albino rabbit, plasma | oral or sublingual, dose not given | 597 ± 95.2 ng/mL |
| CN1CC[C@@H](NC(=O)Nc2ccc(C#N)cc2)C[C@@H]1c1nc2ccccc2[nH]1 | refers to: total compound | normal hepatic function, plasma | oral, 100 mg single dose, fasted, arithmetic mean | 990 ng/mL |
| COc1cc(C)c(Cc2ccc(O)cc2)cc1[C@@H]1S[C@H](CO)[C@@H](O)[C@H](O)[C@H]1O | – | Japanese T2DM patients, plasma | 1 mg luseogliflozin, day 7, once daily | 2.95 ± 0.522 ng/mL |
| CC(C)(Sc1cc[n+]([O-])cc1-c1ccc(C#N)c2ccccc12)C(=O)OC1OC(C(=O)O)C(O)C(O)C1O (stereo not shown) | – | plasma | oral, 15 mg, moderate renal impairment, fasted | 36.9 ng/mL |
| O=C(O)/C=C/c1cccc(S(=O)(=O)Nc2ccccc2)c1 | – | patients with normal liver function, plasma | intravenous, 400 mg/m^2 belinostat, single 30 min infusion, cycle 1 day -7, mean | 1680 ng/mL |
| CC(=O)N[C@H](CC(=O)O)C(=O)N[C@H](Cc1c[nH]c2ccccc12)C(=O)N[C@H](Cc1ccccc1)C(=O)N[C@H](CCCCN)C(=O)N[C@H](C)C(=O)N[C@H](Cc1ccccc1)C(=O)N[C@H](Cc1ccc(O)cc1)C(=O)N[C@H](CC(=O)O)C(=O)N[C@H](CCCCN)C(=O)N[C@@H](C(=O)N[C@H](C)C(=O)N[C@H](CCC(=O)O)C(=O)N[C@H](CCCCN)C(=O)N[C@H](Cc1ccccc1)C(=O)N[C@H](CCCCN)C(=O)N[C@H](CCC(=O)O)C(=O)N[C@H](C)C(=O)N[C@H](Cc1ccccc1)C(N)=O)C(C)C | – | statin-treated high-risk CHD men, plasma | oral, 500 mg daily, day 13, 0-8 h, mean of detected values, outlier woman excluded | 33.6 ng/mL |
| CN(C(=O)c1ccn2ncc(-c3ccc(C(N)=O)cc3)c2c1)c1ccc(C#N)cn1 | – | neonatal male Friesian-Holstein calf, plasma | oral, 5 mg/kg, days 1 and 7 | 0.228 µM |
| CC(C)[C@H](NC(=O)CNC(=O)[C@H](CCC(N)=O)NC(=O)[C@H](C)N)C(=O)O | – | healthy volunteers, LPS endotoxaemia, plasma | intravenous, 90 mg/kg/h, 2 h infusion, geometric mean, with: LPS 2 ng/kg | 15700 ng/mL |
| NC(=O)c1cnc2[nH]ccc2c1NC1C2CC3CC1CC(OS(=O)(=O)O)(C3)C2 (stereo not shown) | – | Japanese adults, normal hepatic function, plasma | oral, 150 mg single dose | 641 ng/mL |
| CC[C@@H](C)[C@H]1NC(=O)[C@@H]([C@H](C)O)NC(=O)[C@@H](Cc2c[nH]cn2)NC(=O)CNC(=O)[C@@H](CCCNC(=N)N)NC(=O)CNC(=O)[C@@H](Cc2ccccc2)NC1=O | – | New Zealand white rabbit, female, retina-choroid | ocular, 0.5% eye drop | ~6.7 µM |
| Cc1ccccc1-c1cc(N2CC[N+](C)([O-])CC2)ncc1N(C)C(=O)C(C)(C)c1cc(C(F)(F)F)cc(C(F)(F)F)c1 | – | healthy volunteers, plasma | oral, dose not given | 147 to 202 ng/mL |
| NC(=O)/C=C/c1cccc(S(=O)(=O)Nc2ccccc2)c1 | – | patients with severe liver dysfunction, plasma | intravenous, 400 mg/m^2 belinostat, single 30 min infusion, cycle 1 day -7, mean | 1930 ng/mL |

Repeated from above:
| Compound | test | system | conditions | Cmax |
| --- | --- | --- | --- | --- |
| CC[C@@H](C)[C@H]1NC(=O)[C@@H]([C@H](C)O)NC(=O)[C@@H](Cc2c[nH]cn2)NC(=O)CNC(=O)[C@@H](CCCNC(=N)N)NC(=O)CNC(=O)[C@@H](Cc2ccccc2)NC1=O | – | New Zealand white rabbit, female, retina-choroid | ocular, 0.5% eye drop | ~6.7 µM |
| COc1cc(C)c(Cc2ccc(O)cc2)cc1[C@@H]1S[C@H](CO)[C@@H](O)[C@H](O)[C@H]1O | – | Japanese T2DM patients, plasma | 1 mg luseogliflozin, day 7, once daily | 2.95 ± 0.522 ng/mL |
